Measurements from different studies.
Each line is one published result; not all experiments were run side by side.
CDK7: Cyclin-dependent kinase 7 (CDK7, Homo sapiens, UniProt P50613)
Chain of UniProt P50613 (whole entry, looked up): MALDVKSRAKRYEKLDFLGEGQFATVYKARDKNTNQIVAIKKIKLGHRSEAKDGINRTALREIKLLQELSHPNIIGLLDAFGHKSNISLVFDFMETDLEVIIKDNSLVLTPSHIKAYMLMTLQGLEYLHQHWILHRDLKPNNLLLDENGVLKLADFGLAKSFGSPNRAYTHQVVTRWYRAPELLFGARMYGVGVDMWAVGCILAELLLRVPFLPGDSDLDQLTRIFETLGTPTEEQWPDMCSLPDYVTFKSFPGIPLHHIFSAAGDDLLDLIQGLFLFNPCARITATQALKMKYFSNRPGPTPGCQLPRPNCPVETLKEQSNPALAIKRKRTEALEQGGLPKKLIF

| SMILES | target | assay | system | conditions | how to read | measurement | value |
| --- | --- | --- | --- | --- | --- | --- | --- |
| Nc1ccc(/C=C/C(=O)N2CCc3c(oc4c(-c5ccc(F)cc5)cc(-c5ccc(C(=O)N6CCC(F)(F)CC6)cn5)cc34)C2)cn1 | CDK7 | binding, competition with immobilised ligand | – | 1 µM | – | remaining binding | 100% |
| CC(C)[C@H]1NC(=O)C[C@H]2/C=C/CCSSC[C@@H](NC1=O)C(=O)N[C@H](Cc1cccc3ccccc13)C(=O)NCC(=O)O2 | Cyclin-dependent kinase 7, with cyclin H (CDK7, Homo sapiens, UniProt P50613) | enzyme activity, inhibitor | – | 10 µM | – | inhibition | 16.7% |
| O=C1NC(=O)c2c1c1cc(F)c[n+]3c1c1c2c2cc(O)ccc2[n]1[Ru-4]312([N]=C=S)[S+]3CC[S+]1CC[S+]2CC3 (stereo not drawn) | CDK7 | enzyme activity | – | 100 nM, human enzyme, together with: 10 µM ATP | relative to: untreated | remaining activity | 25% |
| CCOC(=O)[C@@H]1Cc2c(cc([N+](=O)[O-])cc2[N+](=O)[O-])[C@H](O)[C@]12C(=O)Nc1ccc(Br)cc12 | CDK7 | binding, competition with immobilised ligand | – | 0.1 µM | – | remaining binding | 58% |
| C[C@H](NCc1ccc(-c2ccc(C(F)(F)F)cc2)cc1)C(N)=O | CDK7 | cell-free assay, competition with immobilised ligand | – | 1 µM | – | inhibition | 3% |
| C=CC(=O)Nc1cc(-c2nn(C3CCC(N4CCN(C(C)=O)CC4)CC3)c3ncnc(N)c23)ccc1Oc1ccccc1 (stereo not drawn) | CDK7 | inhibitor, KiNativ profiling | biochemical | 2 µM | – | inhibition | -7% |
| CS(C)(=O)=Nc1ccc(-c2ccc(-c3nc4cc(O[C@@H]5CO[C@H]6[C@@H]5OC[C@H]6O)[nH]c4cc3F)cc2)cc1 | CDK7 | enzyme activity, inhibitor | – | 10 µM | – | inhibition | 0% |
| CN(C)[C@H]1C[C@@]23CC[C@@]4(O2)C(=CC[C@]2(C)[C@@H](c5ccc6ccncc6c5)CC[C@H]24)C=C3[C@@H](O)[C@@H]1O | CDK7 | ATP probe labelling, inhibitor, KiNativ profiling | – | 0.1 µM | – | inhibition | 4.8% |
| CCN1CCN(Cc2ccc(C(=O)Nc3ccc(C)c(NCc4cnc5[nH]ccc5c4OC)c3)cc2C(F)(F)F)CC1 | CDK7 | binding, competition with immobilised ligand | – | 1 µM | – | remaining binding | 97% |
